Assay results gathered from unrelated publications.
Each line is one published result; not all experiments were run side by side. “And” joins repeats or separate records; there may be more than shown.
Cell line: HaCaT

Compound	test	conditions	scale	measurement	value
CC(=O)Oc1ccc(/C=C/C(=O)Oc2cc(C(F)(F)F)ccc2C(F)(F)F)cc1OC(C)=O	MTT	24 h, 10% FBS		subcytotoxic concentration	50 µM
CC[C@H](C)[C@H](NC(=O)CN)C(=O)N[C@@H](Cc1c[nH]c2ccccc12)C(=O)N[C@@H](CCCCN)C(=O)N1CCC[C@H]1C(=O)N[C@H](C(=O)N[C@@H](Cc1ccccc1)C(=O)N[C@H](C(=O)N[C@@H](Cc1ccc(O)cc1)C(=O)N[C@@H](CC(C)C)C(=O)N[C@@H](C)C(=O)N[C@H](C(=O)N1CCC[C@H]1C(=O)N[C@H](C(=O)N[C@@H](Cc1c[nH]cn1)C(=O)N[C@@H](Cc1ccccc1)C(=O)N[C@@H](CCCCN)C(=O)N[C@@H](Cc1ccccc1)C(=O)O)[C@@H](C)CC)[C@@H](C)O)[C@@H](C)O)[C@@H](C)CC	cytotoxicity, MTT	24 h, 37 °C		IC50	31.4 µM
COc1cc(/C=C/C(=O)Oc2cc(C(F)(F)F)ccc2C(F)(F)F)ccc1OC(C)=O	MTT	24 h, 10% FBS		subcytotoxic concentration	25 µM
CC(C)C[C@H](NC(=O)[C@H](CC(N)=O)NC(=O)[C@H](CCCNC(=N)N)NC(=O)[C@@H](CC(C)C)NC(=O)[C@H](Cc1ccc(-c2ccccc2)cc1)NC(=O)[C@H](CC(=O)O)NC(=O)[C@H](CCCNC(=N)N)NC(=O)[C@@H](CC(C)C)NC(=O)[C@H](CCCCN)NC(=O)[C@H](CCC(N)=O)NC(=O)[C@@H](NC(=O)[C@@H](CC(C)C)NC(=O)[C@H](CCCCN)NC(=O)[C@H](CCCNC(=N)N)NC(=O)[C@H](Cc1ccc(-c2ccccc2)cc1)NC(=O)CN)C(C)C)C(=O)N[C@H](C(N)=O)C(C)C	cell viability, MTS	1 h, 37 °C, 10% FBS		LC50	30 µM
CSCC[C@H](NC(=O)[C@H](CCCCN)NC(=O)[C@H](CC(N)=O)NC(=O)[C@H](C)NC(=O)[C@H](C)NC(=O)[C@H](CCCCN)NC(=O)[C@H](C)NC(=O)[C@@H](NC(=O)CNC(=O)[C@H](Cc1c[nH]c2ccccc12)NC(=O)[C@H](Cc1ccc(O)cc1)NC(=O)[C@H](CC(C)C)NC(=O)[C@H](CCCCN)NC(=O)CNC(=O)[C@@H](NC(=O)[C@H](Cc1c[nH]c2ccccc12)NC(=O)CNC(=O)[C@H](Cc1ccccc1)NC(=O)[C@H](CCCCN)NC(=O)[C@H](CC(C)C)NC(=O)[C@@H](NC(=O)[C@@H](NC(=O)[C@H](CCCNC(=N)N)NC(=O)[C@H](Cc1c[nH]c2ccccc12)NC(=O)CN)[C@@H](C)O)C(C)C)C(C)C)C(C)C)C(=O)N[C@@H](C)C(=O)N[C@@H](CCCNC(=N)N)C(=O)N[C@@H](Cc1ccc(O)cc1)C(=O)N[C@@H](CC(C)C)C(=O)N[C@H](C(=O)N[C@@H](CCCCN)C(=O)N[C@@H](C)C(=O)N[C@H](C(=O)N[C@@H](Cc1ccc(O)cc1)C(=O)NCC(=O)N[C@@H](CCCNC(=N)N)C(=O)N[C@H](C(=O)N[C@@H](CCCNC(=N)N)C(=O)N[C@@H](CCCCN)C(=O)N[C@@H](CC(=O)O)C(=O)N[C@@H](C)C(=O)O)C(C)C)C(C)C)[C@@H](C)O	cytotoxicity, MTT	24 h, 37 °C		IC50	4.82 µM
CC[C@H](C)[C@H](NC(=O)[C@H](C)NC(=O)[C@H](CCCCN)NC(=O)[C@H](CC(C)C)NC(=O)[C@@H](N)Cc1ccccc1)C(=O)N[C@@H](CCCCN)C(=O)N[C@@H](CCCCN)C(=O)N[C@@H](Cc1ccccc1)C(=O)NCC(=O)N[C@@H](CCCCN)C(=O)N[C@@H](CCC(=O)O)C(=O)N[C@@H](Cc1ccccc1)C(=O)N[C@@H](CCCCN)C(=O)N[C@@H](CCCCN)C(=O)N[C@H](C(=O)NCC(=O)N[C@@H](C)C(=O)N[C@@H](CCCCN)C(=O)N[C@@H](CC(C)C)C(=O)N[C@@H](CCCCN)C(=O)O)[C@@H](C)CC	MTT	32 mg/L	reference: untreated	cell growth	89.5% and 98.8% and 83.6% and 86.3%
CC(=O)Oc1ccc(/C=C/C(=O)Oc2cc(C(F)(F)F)cc(C(F)(F)F)c2)cc1OC(C)=O	cell growth or viability, MTT	24 h		CC50	94.8 µM
Cc1ccc(NS(=O)(=O)c2c(C(=O)N3CCCCCC3)c(C)n(C)c2C)c(Cl)c1		1.235 µM, 60 h		viability	97.3% and 99.1%
CC[C@H](C)[C@H](NC(=O)[C@H](C)NC(=O)[C@H](CCCCN)NC(=O)[C@H](CCCCN)NC(=O)[C@@H](N)CCCNC(=N)N)C(=O)N[C@@H](CCCCN)C(=O)N[C@@H](CC(C)C)C(=O)N[C@H](C(=O)N[C@@H](CCCCN)C(=O)N[C@@H](CCCCN)C(=O)N[C@@H](CC(C)C)C(=O)N[C@H](C(=O)N[C@@H](CCCCN)C(=O)N[C@@H](CCCCN)C(=O)N[C@@H](CC(C)C)C(=O)N[C@@H](CCCCN)C(=O)N[C@@H](CCCCN)C(=O)N[C@@H](C)C(=O)N[C@@H](CC(C)C)C(=O)N[C@@H](CCCCN)C(=O)O)C(C)C)C(C)C	MTT	32 mg/L	reference: untreated	cell growth	73.4% and 90% and 81.9% and 84.9% and 89.5%
